Measured values gathered from unrelated publications.
Protocols differ between the studies behind these lines. Several values in a cell are separate wells, animals, samples, runs or records. Numbers after ± are the reported error.
SRD5A1: 3-oxo-5-alpha-steroid 4-dehydrogenase 1 (SRD5A1, Homo sapiens, UniProt P18405)
Chain of UniProt P18405 (whole entry, looked up): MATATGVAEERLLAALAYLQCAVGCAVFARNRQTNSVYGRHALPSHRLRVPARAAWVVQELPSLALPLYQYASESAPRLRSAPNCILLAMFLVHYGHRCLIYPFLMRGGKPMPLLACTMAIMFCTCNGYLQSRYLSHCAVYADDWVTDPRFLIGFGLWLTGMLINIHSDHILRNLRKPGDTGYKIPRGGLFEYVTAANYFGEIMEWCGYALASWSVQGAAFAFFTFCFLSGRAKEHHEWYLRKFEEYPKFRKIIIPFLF
ADRA1B: Alpha-1B adrenergic receptor (ADRA1B, Homo sapiens, UniProt P35368)
Chain of UniProt P35368 (whole entry, looked up): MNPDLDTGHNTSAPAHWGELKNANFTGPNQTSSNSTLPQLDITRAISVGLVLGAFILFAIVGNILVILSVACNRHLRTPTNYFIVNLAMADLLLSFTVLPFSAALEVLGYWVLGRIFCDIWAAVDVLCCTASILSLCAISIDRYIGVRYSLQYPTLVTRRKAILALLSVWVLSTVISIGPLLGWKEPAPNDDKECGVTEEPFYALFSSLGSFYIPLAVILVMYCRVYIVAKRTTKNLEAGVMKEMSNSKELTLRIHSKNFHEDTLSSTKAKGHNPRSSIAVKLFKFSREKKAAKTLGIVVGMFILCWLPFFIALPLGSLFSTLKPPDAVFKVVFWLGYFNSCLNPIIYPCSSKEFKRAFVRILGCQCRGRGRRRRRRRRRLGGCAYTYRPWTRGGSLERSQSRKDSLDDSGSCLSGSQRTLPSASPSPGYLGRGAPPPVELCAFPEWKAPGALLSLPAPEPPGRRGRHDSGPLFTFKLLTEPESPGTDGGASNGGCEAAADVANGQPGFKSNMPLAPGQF
SIRT2: NAD-dependent protein deacetylase sirtuin-2 (SIRT2, Homo sapiens, UniProt Q8IXJ6)
Chain of UniProt Q8IXJ6 (whole entry, looked up): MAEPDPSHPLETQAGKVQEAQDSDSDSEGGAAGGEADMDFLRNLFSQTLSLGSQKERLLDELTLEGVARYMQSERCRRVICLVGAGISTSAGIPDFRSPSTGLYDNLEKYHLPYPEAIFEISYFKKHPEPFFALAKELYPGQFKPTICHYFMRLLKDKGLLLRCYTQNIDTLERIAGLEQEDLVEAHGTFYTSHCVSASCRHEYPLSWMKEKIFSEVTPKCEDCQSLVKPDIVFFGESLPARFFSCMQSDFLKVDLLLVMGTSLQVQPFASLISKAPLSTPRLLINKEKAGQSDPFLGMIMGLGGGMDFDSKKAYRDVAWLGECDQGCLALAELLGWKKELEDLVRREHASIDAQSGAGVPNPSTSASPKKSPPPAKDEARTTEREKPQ
AGER: Advanced glycosylation end product-specific receptor (AGER, Homo sapiens, UniProt Q15109)
Chain of UniProt Q15109 (whole entry, looked up): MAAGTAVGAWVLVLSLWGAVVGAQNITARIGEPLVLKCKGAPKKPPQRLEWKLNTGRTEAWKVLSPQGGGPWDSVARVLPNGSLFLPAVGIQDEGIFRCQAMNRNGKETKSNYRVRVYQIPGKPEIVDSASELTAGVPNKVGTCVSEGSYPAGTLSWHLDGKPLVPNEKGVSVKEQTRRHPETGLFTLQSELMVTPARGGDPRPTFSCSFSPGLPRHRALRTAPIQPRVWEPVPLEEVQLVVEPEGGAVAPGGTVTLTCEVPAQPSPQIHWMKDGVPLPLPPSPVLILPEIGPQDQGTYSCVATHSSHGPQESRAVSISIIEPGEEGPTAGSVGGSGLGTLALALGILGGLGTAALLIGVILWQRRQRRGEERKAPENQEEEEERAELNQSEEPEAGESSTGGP
JAK2: Tyrosine-protein kinase JAK2 (JAK2, Homo sapiens, UniProt O60674)
Chain of UniProt O60674 (whole entry, looked up): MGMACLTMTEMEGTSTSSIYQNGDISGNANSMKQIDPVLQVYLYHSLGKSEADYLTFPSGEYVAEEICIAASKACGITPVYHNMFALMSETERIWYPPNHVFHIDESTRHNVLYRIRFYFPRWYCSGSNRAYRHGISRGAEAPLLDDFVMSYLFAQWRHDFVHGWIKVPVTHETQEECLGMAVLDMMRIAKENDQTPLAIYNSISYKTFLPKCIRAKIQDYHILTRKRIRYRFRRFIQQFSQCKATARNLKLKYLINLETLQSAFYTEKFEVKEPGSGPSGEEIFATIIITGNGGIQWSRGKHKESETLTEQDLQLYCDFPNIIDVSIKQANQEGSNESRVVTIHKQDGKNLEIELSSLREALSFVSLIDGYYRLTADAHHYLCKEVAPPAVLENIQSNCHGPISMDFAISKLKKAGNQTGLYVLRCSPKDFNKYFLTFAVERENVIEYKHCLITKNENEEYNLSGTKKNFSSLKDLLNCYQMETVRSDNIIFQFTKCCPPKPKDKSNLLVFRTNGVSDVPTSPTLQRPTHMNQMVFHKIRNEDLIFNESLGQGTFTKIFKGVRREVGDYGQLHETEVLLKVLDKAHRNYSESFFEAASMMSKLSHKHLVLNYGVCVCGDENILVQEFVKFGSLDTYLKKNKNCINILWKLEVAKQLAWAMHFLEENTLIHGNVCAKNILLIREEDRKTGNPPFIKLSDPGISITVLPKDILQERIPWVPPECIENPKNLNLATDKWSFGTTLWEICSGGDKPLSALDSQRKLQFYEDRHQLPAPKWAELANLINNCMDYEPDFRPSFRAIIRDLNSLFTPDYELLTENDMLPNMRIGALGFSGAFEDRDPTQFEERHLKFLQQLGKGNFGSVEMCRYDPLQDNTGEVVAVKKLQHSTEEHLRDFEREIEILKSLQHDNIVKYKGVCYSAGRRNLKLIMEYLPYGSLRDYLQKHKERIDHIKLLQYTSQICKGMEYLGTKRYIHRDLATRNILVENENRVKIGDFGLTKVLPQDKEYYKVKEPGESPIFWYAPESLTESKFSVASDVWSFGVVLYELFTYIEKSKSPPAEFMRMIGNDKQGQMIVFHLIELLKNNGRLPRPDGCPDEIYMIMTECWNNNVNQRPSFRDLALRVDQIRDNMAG
HTR3A: 5-hydroxytryptamine receptor 3A (HTR3A, Homo sapiens, UniProt P46098)
Chain of UniProt P46098 (whole entry, looked up): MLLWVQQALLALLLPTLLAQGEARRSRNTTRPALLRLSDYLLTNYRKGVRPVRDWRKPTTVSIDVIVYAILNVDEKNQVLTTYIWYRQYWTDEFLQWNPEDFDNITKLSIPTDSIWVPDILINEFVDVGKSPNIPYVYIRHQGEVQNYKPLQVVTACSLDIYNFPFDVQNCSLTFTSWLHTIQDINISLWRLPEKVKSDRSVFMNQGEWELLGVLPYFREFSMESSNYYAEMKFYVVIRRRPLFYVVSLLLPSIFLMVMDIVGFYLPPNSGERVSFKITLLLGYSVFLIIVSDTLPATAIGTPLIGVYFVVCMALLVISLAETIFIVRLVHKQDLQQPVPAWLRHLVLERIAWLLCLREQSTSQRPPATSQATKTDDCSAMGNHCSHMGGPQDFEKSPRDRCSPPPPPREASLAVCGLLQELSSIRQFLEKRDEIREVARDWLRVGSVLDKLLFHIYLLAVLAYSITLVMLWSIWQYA
NR3C1: Glucocorticoid receptor (NR3C1, Homo sapiens, UniProt P04150)
Chain of UniProt P04150 (whole entry, looked up): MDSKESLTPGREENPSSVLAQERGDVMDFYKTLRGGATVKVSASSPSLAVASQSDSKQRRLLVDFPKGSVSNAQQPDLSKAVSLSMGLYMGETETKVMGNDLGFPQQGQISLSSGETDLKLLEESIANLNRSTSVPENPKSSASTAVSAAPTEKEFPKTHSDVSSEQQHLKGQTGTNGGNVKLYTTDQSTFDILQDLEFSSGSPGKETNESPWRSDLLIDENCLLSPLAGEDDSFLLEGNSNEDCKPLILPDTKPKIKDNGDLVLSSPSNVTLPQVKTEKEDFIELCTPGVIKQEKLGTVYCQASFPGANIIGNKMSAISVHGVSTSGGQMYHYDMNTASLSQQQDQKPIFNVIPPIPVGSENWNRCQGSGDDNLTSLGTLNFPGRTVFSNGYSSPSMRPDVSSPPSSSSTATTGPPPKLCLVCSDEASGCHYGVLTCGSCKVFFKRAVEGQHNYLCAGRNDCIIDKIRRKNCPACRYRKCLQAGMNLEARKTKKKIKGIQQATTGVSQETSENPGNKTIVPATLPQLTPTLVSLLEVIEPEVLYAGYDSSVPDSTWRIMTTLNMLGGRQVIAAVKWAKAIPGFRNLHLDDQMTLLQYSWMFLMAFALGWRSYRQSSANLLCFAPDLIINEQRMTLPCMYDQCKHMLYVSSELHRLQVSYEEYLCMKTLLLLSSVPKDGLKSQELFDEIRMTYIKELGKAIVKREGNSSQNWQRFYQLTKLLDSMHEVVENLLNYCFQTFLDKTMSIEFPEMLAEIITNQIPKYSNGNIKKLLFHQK
CTSB: Cathepsin B (CTSB, Homo sapiens, UniProt P07858)
HDAC2: Histone deacetylase 2 (HDAC2, Homo sapiens, UniProt Q92769)
Chain of UniProt Q92769 (whole entry, looked up): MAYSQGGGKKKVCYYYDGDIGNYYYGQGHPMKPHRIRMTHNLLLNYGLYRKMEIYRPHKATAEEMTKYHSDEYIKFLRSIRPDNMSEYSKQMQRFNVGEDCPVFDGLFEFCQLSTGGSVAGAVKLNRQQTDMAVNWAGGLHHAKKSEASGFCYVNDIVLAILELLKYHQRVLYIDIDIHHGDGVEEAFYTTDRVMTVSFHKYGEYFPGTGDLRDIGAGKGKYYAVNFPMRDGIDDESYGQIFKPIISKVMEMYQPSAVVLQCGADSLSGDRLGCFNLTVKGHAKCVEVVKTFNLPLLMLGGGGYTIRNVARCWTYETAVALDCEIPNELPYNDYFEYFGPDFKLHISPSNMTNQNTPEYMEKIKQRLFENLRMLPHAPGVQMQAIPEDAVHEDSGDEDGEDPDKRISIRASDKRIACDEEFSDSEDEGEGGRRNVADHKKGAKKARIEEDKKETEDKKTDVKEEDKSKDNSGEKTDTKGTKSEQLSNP
Chain of UniProt Q99436 (whole entry, looked up): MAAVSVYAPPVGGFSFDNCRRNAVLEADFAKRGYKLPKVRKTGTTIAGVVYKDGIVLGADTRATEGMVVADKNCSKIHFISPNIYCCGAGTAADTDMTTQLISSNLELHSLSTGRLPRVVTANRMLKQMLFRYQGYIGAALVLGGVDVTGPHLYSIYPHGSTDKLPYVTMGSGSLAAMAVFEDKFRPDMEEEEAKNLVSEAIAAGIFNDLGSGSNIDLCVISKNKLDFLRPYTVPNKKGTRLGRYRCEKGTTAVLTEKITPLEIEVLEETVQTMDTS
Chain of UniProt P49720 (whole entry, looked up): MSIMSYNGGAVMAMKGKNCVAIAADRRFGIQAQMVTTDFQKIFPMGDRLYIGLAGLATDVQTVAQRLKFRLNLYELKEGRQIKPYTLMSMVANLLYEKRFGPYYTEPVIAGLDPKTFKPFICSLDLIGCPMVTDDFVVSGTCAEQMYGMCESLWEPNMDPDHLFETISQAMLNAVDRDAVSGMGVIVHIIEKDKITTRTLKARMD

COc1cc(/C=C/C(=O)Oc2ccc(C(F)(F)F)c(C(F)(F)F)c2)ccc1OC(C)=O  inhibition (SRD5A1; enzyme activity in cells, inhibitor; HaCaT; 50 µM): 15%
Cc1cccc(-n2nc(S)sc2=S)c1  inhibition (Adenylate cyclase type 10 (Homo sapiens, UniProt Q96PN6); inhibitor; 10 µM): 58.1%
O=C1c2sc(-c3ccc(N4CCC(F)C4)nc3F)nc2CCN1c1cccnc1 (centres unmarked)  inhibition (ADRA1B; ligand displacement, radioligand; 1 µM): 11%
O=C(NC1CCC1)[C@H](Cc1c[nH]c2ccccc12)NC(=O)[C@H](CCCCNC(=S)NCCc1noc(=O)[nH]1)NS(=O)(=O)c1cccc(F)c1  inhibition (SIRT2; enzyme activity, inhibitor; 10 µM): 7%
CN(Cc1ccc(/C=C/C(=O)NO)cc1)CC12CC3CC(CC(C3)C1)C2  inhibition (human B2 receptor; agonist radioligand binding; 0.05 µM): 6%
CCCCCCCCCCCCNC(=S)NCCCC[C@H](NC(=O)OCc1ccccc1)C(=O)N[C@@H](Cc1c[nH]c2ccccc12)C(=O)N[C@@H](CC(C)C)C(N)=O  inhibition (SIRT2; enzyme activity, inhibitor; 100 µM): < 5%
CCCCC(=O)N1N=C(c2ccc(Cl)cc2)CC1c1ccc(NC(=O)Nc2ccc(Cl)cc2)cc1 (centres unmarked)  inhibition (AGER; 100 µM): 30%
C=CC(=O)N1Cc2nc(-c3cc(-c4cc(Cl)cnc4Cl)c(F)cc3F)n(-c3ccncn3)c2C1  inhibition (5'-AMP-activated protein kinase catalytic subunit alpha-2, with beta1 gamma3 (PRKAA2, Homo sapiens, UniProt P54646); kinome panel; 1 µM): -1.1%
C/C=C/C(=O)Nc1ccc2nc(NCCCCCN(C)C)nc(NCCCCCCN(C)C)c2c1  inhibition (DNA (cytosine-5)-methyltransferase 3B, with DNMT3L (DNMT3B, Homo sapiens, UniProt Q9UBC3); enzyme activity; 10 µM): -26%
CC(C)C[C@H](NC(=O)[C@H](Cc1ccccc1)NC(=O)[C@H](CCONC(=N)N)NC(=O)[C@H](C)N)B(O)O  inhibition (Proteasome subunit beta type-3/PSMB7 (Homo sapiens, UniProt P49720+Q99436); trypsin-like activity, inhibitor; human constitutive proteasome; 5 nM, added: Boc-LRR-AMC): inhibited
CCCCCNC(=O)N1N=C(c2ccc(NC(=O)Nc3ccc(Cl)cc3)cc2)CC1c1ccc(Br)cc1 (centres unmarked)  inhibition (AGER; 100 µM): 32%
Cc1cnc2nc1Nc1cc(F)cc(c1)COC/C=C/COCc1cc(ccc1OCCN1CCCC1)N2  inhibition (JAK2; inhibitor, Z'-LYTE kinase; 1000 nM): 97.8% and 96.5% and 99.2%
O=C1c2sc(-c3ccc(N4CCC(CO)CC4)nc3F)nc2CCN1c1cccnc1  inhibition (MT3 (ML-2) receptor; radioligand binding; 1 µM, added: agonist radioligand): -10%
CN(C)C/C=C/C(=O)Nc1ccc2nc(NCCCCCN(C)C)nc(NCCCCCCN(C)C)c2c1  inhibition (PRMT5 (Homo sapiens, UniProt O14744); enzyme activity, inhibitor, radiometric; 10 µM): 8%
COc1cc(/C=C/C(=O)O)ccc1O  inhibition (SRD5A1; enzyme activity in cells, inhibitor; HaCaT; 50 µM): 4.01%
C[Si](C)(C)C[C@H](CN)CC(=O)O  inhibition (Htr1b (Rattus norvegicus, UniProt P28564); ligand displacement, radioligand; 250 µM): -1%
O=C(Nc1ccc(Cl)cc1)Nc1ccc(C2CC(c3ccc(Cl)cc3)=CC(=O)C2C(=O)O)cc1 (centres unmarked)  inhibition (AGER; 100 µM): 55%
COc1ccc(C(=O)Nc2c(-c3cccs3)nc3ccccn23)cc1  inhibition (DRD5 (Homo sapiens, UniProt P21918); ligand displacement, radioligand; 10 µM): < 50%
Cc1ccnc(OC[C@H]2CN(CCN3CCc4ccccc43)CCO2)c1  inhibition (HTR3A; radioligand binding; concentration not given, added: [3H]GR65630): 20.9%
Cn1ccc2cc(-n3c(=O)[nH]c4sc5c(c4c3=O)CCCC5)ccc21  inhibition (NR3C1; cell-free assay, radioligand; 10 µM): 9%
COc1cc(/C=C/C(=O)Oc2cc(C(F)(F)F)ccc2C(F)(F)F)ccc1OC(C)=O  inhibition (SRD5A1; enzyme activity in cells, inhibitor; HaCaT; 25 µM): 13.5%
CN1CCN(Cc2ccc(-c3ccc(CO[C@H]4CCC[C@@H]4NC(=O)c4cc(-c5cnn(C)c5)cnc4N)cc3)cc2)CC1  inhibition (5'-AMP-activated protein kinase catalytic subunit alpha-2, with beta2 gamma3 (PRKAA2, Homo sapiens, UniProt P54646); SelectScreen kinase profiling; 0.1 µM): -2%
C[C@H](NC(=O)[C@H](CC(=O)NCC(C)(C)C)NC(=O)CCc1ccccc1)C(=O)NCc1ccccc1Cl  inhibition (CTSB; enzyme activity, inhibitor; 100 µM): -7%
COc1ccc2nc(C)ccc2c1Nc1sn(C)c(=O)c1C#N  inhibition (CD38 (Homo sapiens, UniProt P28907); enzyme activity, inhibitor; 10 µM): 0%
O=C(Nc1ccc(Cl)cc1)Nc1ccc(C2CC(c3ccc(Cl)cc3)=NN2C(=O)Nc2ccc(Br)cc2)cc1 (centres unmarked)  inhibition (AGER; 100 µM): 34%
Cc1cnc2nc1Nc1cccc(c1)COCc1cc(ccc1OCCN1CCOCC1)N2  inhibition (JAK2; inhibitor, Z'-LYTE kinase; 12.35 nM): 27.5% and 26.6% and 33.1%
Cc1[nH]nc2c1N=C(c1ccccc1Cl)c1cnc(N3CCOCC3)cc1N2  inhibition (Cacna1b (Rattus norvegicus, UniProt Q02294); ligand displacement; 10 µM): 3%
CN(C)c1ncnc2c1ncn2[C@@H]1O[C@H](CCl)[C@@H](NC(=O)[C@H](CSC23CC4CC(CC(C4)C2)C3)NC(=O)OC(C)(C)C)[C@H]1O  inhibition (Aminopeptidase N (ANPEP, Homo sapiens, UniProt P15144); enzyme activity, inhibitor, fluorescence; 10 µM): 0%
CCn1cc(C(=O)O)c(=O)c2c(N)c(F)c(NC3CCCCC3)cc21  inhibition (TSSK6 (Homo sapiens, UniProt Q9BXA6); kinase activity; 0.1 µM, added: ATP at Km): 2.5%
C=CC(=O)Nc1cccc(-c2cnc3[nH]cc(C(=O)NC(C)(C)C)c3n2)c1  inhibition (CK1; 0.1 µM): 8% and 9%
c1ccc(OC[C@H]2CN(CCN3CCc4ccccc43)CCO2)nc1  inhibition (HTR3A; radioligand binding; concentration not given, added: [3H]GR65630): 24%
CC[C@H](C)[C@@H]1NC(=O)[C@H](Cc2ccccc2C(F)(F)F)NC(=O)CCSCc2cccc(n2)CSCCCNC(=O)[C@H](CCCCCC(=O)O)NC1=O  inhibition (HDAC2; enzyme activity, inhibitor, fluorogenic; 30 µM): 15%
CC(C)Cn1c(SCC(=O)N2CCc3ccccc3C2)nc2cc(Cl)ccc2c1=O  inhibition (ADRA1B; ligand displacement, radioligand; 10 µM): -1%
COc1ccc(C#CC2=C[C@H]3C[C@@]4(OC(=O)C=C24)[C@H]2CC[C@H](C(OC)OC)N32)cc1  inhibition (NR3C1; ligand displacement, radioligand; 10 µM): 94%
Cc1cnc2nc1Nc1cccc(c1)COCCCCOCc1cc(ccc1OCCN1CCCC1)N2  inhibition (JAK2; inhibitor, Z'-LYTE kinase; 370.37 nM): 68.5% and 56.9% and 69.1%
N=C(N)NCCCC(NC(=O)C(CC(=O)NO)Cc1ccc2ccccc2c1)C(=O)NC(Cc1c[nH]c2ccccc12)C(=O)NC(CCC(=O)O)C(N)=O (centres unmarked)  inhibition (ADAM17 (Homo sapiens, UniProt P78536); 1 µM): 34%
Cc1cnc2nc1Nc1cccc(c1)COC/C=C/COCc1cc(ccc1OCCN1CCOCC1)N2  inhibition (JAK2; inhibitor, Z'-LYTE kinase; 0.9766 nM): 39.9% and 37.3% and 43.6%
Cc1ccc(N(O)/N=N/c2ccc(S(=O)(=O)Nc3nccs3)cc2)cc1  inhibition (α-glucosidase, rat intestine; enzyme activity; 180 µg/mL, added: 4-nitrophenyl α-D-glucopyranoside): 30 ± 0.04%
CC(C)[C@H]1NC(=O)[C@@H](C)NC(=O)[C@@H](C(C)C)NC(=O)[C@@H](Cc2ccccc2)NC(=O)[C@@H](C(C)C)NC(=O)[C@@H]([C@H](C)O)NC(=O)[C@@H](Cc2ccc(O)cc2)NC(=O)[C@@H](CCCNC(=N)N)NC(=O)[C@@H]2CCCC[C@H]2NC(=O)[C@@H](CO)NC(=O)[C@H](Cc2ccc(O)cc2)NC(=O)CSC[C@@H](C(=O)NCCOCCOCCOCCOCCOCCOCCC(N)=O)NC(=O)[C@@H](CO)NC(=O)[C@@H](C(C)C)NC(=O)[C@@H](Cc2ccc(O)cc2)NC1=O  inhibition (Matrilysin (MMP7, Homo sapiens, UniProt P09237); enzyme activity, inhibitor; concentration not given, high-affinity phase of biphasic curve): ~65%
N#C/C(=C\c1ccc(-c2cc(Cl)ccc2Cl)o1)C(=O)Nc1cccc2ncccc12  inhibition (SIRT2; enzyme activity, inhibitor; 10 µM): < 5%
COc1ccc(S(=O)(=O)N2CCc3ccccc3C2)cc1N1CCN(C(=O)c2ccc(F)cc2C(F)(F)F)CC1  inhibition (Maoa (Rattus norvegicus, UniProt P21396); ligand displacement, radioligand; 1 µM): 11.3%
COCC(=O)N1CCc2cc(-c3csc(NC(=O)c4cc(OC)cc(OC)c4)n3)ccc21  inhibition (NR3C1; cell-free assay; 10 µM): -24%
CC(C)(C)c1ccccc1OS(=O)(=O)Oc1cccc(C(=O)NO)c1  inhibition (HDAC2; enzyme activity, inhibitor, fluorescence; 10 µM): 15%
CCCCCNC(=O)N1N=C(c2ccc(Cl)cc2)CC1c1ccc(NC(=O)Nc2ccc(Cl)cc2)cc1 (centres unmarked)  inhibition (AGER; 100 µM): 89%
CS(=O)(=O)Nc1cccc(-c2csc3cnc(Nc4ccc(N5CCN(CCCCCOc6cccc7c6C(=O)N(C6CCC(=O)NC6=O)C7=O)CC5)cc4)nc23)c1 (centres unmarked)  inhibition (Acylglycerol kinase, mitochondrial (Homo sapiens, UniProt Q53H12); probe labelling, inhibitor, KiNativ chemoproteomics; MOLT-4; 1 µM): 5.3%
CC(=O)C12NC(C)(C)CC1(C)C(=O)C1=C2c2c(c3c4n2C(C)(C)CC2=C4C4(CC(C)(C)NC(C)(C4)C2=O)CC3(C)C)C(=O)C(C)(C)N1 (single isomer, unassigned; (-))  inhibition (TRPV1 (Homo sapiens, UniProt Q8NER1); ion current, inhibitor, patch clamp; HEK-293T; 50 µM): 13.3%
Cc1ccc(CN(C)C(=O)C(CCc2ccccc2)NC(=O)C(NC(=O)c2ccc(OCc3ccccc3)cc2)C(C)O)cc1 (centres unmarked)  inhibition (CTSB; enzyme activity, inhibitor; 100 µM): 20%

For quick reference, copied from above:
Cc1cccc(-n2nc(S)sc2=S)c1  inhibition (Adenylate cyclase type 10 (Homo sapiens, UniProt Q96PN6); inhibitor; 10 µM): 58.1%
CN(C)C/C=C/C(=O)Nc1ccc2nc(NCCCCCN(C)C)nc(NCCCCCCN(C)C)c2c1  inhibition (PRMT5 (Homo sapiens, UniProt O14744); enzyme activity, inhibitor, radiometric; 10 µM): 8%
CCCCCNC(=O)N1N=C(c2ccc(NC(=O)Nc3ccc(Cl)cc3)cc2)CC1c1ccc(Br)cc1 (centres unmarked)  inhibition (AGER; 100 µM): 32%
CC(C)Cn1c(SCC(=O)N2CCc3ccccc3C2)nc2cc(Cl)ccc2c1=O  inhibition (ADRA1B; ligand displacement, radioligand; 10 µM): -1%
COc1cc(/C=C/C(=O)Oc2ccc(C(F)(F)F)c(C(F)(F)F)c2)ccc1OC(C)=O  inhibition (SRD5A1; enzyme activity in cells, inhibitor; HaCaT; 50 µM): 15%
CN1CCN(Cc2ccc(-c3ccc(CO[C@H]4CCC[C@@H]4NC(=O)c4cc(-c5cnn(C)c5)cnc4N)cc3)cc2)CC1  inhibition (5'-AMP-activated protein kinase catalytic subunit alpha-2, with beta2 gamma3 (PRKAA2, Homo sapiens, UniProt P54646); SelectScreen kinase profiling; 0.1 µM): -2%
N=C(N)NCCCC(NC(=O)C(CC(=O)NO)Cc1ccc2ccccc2c1)C(=O)NC(Cc1c[nH]c2ccccc12)C(=O)NC(CCC(=O)O)C(N)=O (centres unmarked)  inhibition (ADAM17 (Homo sapiens, UniProt P78536); 1 µM): 34%
